Measured values gathered from unrelated publications.
Compare with care: the assays were run in different laboratories. “And” joins repeats or separate records; there may be more than shown.
Cell line: SF-539

Compound | test | system | setting | scale | endpoint | result
CSc1nc(-c2ccc(Cl)cc2)c2c(NC(=O)c3ccccc3)nnc-2[nH]1 | SRB |  | 10 µM, NCI60 single-dose screen | reference: untreated | cell growth | 91.5%
C#C[C@@]1(O)[C@@H](CO)O[C@@H](n2ccc3c(N)ncnc32)[C@@H]1O | SRB |  | NCI-60 screen |  | TGI | 4440 nM
O=C1NCCc2[nH]c(-c3ccncc3)cc21 | MTS |  | NCI60 panel |  | IC50 | 3680 nM
Cc1cc(=O)[nH]n1-c1nc(-c2ccc(Cl)cc2)c2c(NC(=O)c3ccccc3)nnc-2[nH]1 | SRB |  | 10 µM, NCI60 single-dose screen | reference: untreated | cell growth | 92.9%
CCCN1CCN(c2ccc3nc(-c4ccc5nc(-c6cc(OC)ccc6OC)[nH]c5c4)[nH]c3c2)CC1 | SRB |  | 10 µM, 48 h |  | growth percent | 96.2%
C#C[C@@]1(O)[C@@H](CO)O[C@@H](n2cc(Cl)c3c(N)ncnc32)[C@@H]1O | SRB |  | NCI-60 screen |  | TGI | 1300 nM and 1610 nM
CCCCN1CCN(c2ccc3nc(-c4ccc5nc(-c6cc(OC)ccc6OC)[nH]c5c4)[nH]c3c2)CC1 | SRB |  | 10 µM, 48 h |  | growth percent | 92.8%
Cn1cncc1C1=CN(c2ncnc3[nH]cnc23)CCS1 |  |  | CNS cancer |  | GI50 | 12300 nM
O=C(Nc1nnc2n3c(nc(-c4ccc(Cl)cc4)c1-2)SCC3=O)c1ccccc1 | SRB |  | 10 µM, NCI60 single-dose screen | reference: untreated | cell growth | 96.2%
CC(=O)O[C@H]1C(=O)[C@@]2(C)[C@H]([C@H](OC(=O)c3ccccc3)[C@]3(O)C[C@H](OC(=O)[C@H](O)[C@@H](NC(=O)c4ccccc4)c4ccccc4)C(C)=C1C3(C)C)[C@]1(OC(C)=O)CO[C@@H]1C[C@@H]2O | sulforhodamine B | CNS cancer | NCI60 screen |  | TGI | 60 nM
CN1CCN(c2ccc3[nH]c(-c4ccc5[nH]c(-c6ccc(C(F)(F)F)cc6)nc5c4)nc3c2)CC1 | SRB |  | 10 µM, 48 h |  | growth percent | 47.2%
C#C[C@@]1(O)[C@@H](CO)O[C@@H](n2cc(I)c3c(N)ncnc32)[C@@H]1O | SRB |  | NCI-60 screen |  | TGI | 2180 nM and 2980 nM
CCCN1CCN(c2ccc3[nH]c(-c4ccc5[nH]c(-c6ccc(C(F)(F)F)cc6)nc5c4)nc3c2)CC1 | SRB |  | 10 µM, 48 h |  | growth percent | -94.6%
Cc1cc(C)n(-c2nc(-c3ccc(Cl)cc3)c3c(NC(=O)c4ccccc4)nnc-3[nH]2)n1 | SRB |  | 10 µM, NCI60 single-dose screen | reference: untreated | cell growth | 87.7%
COc1ccc(OC)c(-c2nc3ccc(-c4nc5ccc(N6CCN(C)CC6)cc5[nH]4)cc3[nH]2)c1 | SRB |  | 10 µM, 48 h |  | growth percent | 97.5%
S=C([S][Au-][P+](CCCCCC[P+]([Au-][S]C(=S)n1cccn1)(c1ccccc1)c1ccccc1)(c1ccccc1)c1ccccc1)n1cccn1 | cell growth, NCI-60 screen |  | CNS cancer |  | log10 TGI | -4.32
